Experimental data from different studies.
Numbered parts are unrelated; each lists some results of a single study.
UniProt P41145, sequence (whole entry, looked up): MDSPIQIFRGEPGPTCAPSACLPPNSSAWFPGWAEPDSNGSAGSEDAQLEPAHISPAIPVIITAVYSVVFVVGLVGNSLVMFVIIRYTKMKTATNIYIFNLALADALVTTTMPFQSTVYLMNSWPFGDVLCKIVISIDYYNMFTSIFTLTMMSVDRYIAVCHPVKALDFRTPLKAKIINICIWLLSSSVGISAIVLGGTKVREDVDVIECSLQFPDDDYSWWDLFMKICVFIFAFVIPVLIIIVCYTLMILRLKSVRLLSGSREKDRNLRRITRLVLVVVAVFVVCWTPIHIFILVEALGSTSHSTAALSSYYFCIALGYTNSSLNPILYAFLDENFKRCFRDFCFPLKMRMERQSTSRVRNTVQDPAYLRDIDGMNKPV
UniProt P35372, sequence (whole entry, looked up): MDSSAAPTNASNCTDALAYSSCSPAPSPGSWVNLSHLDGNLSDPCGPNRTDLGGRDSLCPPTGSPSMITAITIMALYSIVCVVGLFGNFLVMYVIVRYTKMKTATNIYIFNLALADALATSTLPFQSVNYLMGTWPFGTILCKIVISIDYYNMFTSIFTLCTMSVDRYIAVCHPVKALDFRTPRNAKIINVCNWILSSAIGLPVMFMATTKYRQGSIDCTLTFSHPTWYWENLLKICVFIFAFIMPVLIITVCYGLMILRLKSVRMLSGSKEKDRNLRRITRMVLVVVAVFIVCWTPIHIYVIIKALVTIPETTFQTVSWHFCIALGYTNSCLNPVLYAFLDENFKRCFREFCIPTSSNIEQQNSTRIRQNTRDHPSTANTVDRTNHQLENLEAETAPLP
UniProt P23975, sequence (whole entry, looked up): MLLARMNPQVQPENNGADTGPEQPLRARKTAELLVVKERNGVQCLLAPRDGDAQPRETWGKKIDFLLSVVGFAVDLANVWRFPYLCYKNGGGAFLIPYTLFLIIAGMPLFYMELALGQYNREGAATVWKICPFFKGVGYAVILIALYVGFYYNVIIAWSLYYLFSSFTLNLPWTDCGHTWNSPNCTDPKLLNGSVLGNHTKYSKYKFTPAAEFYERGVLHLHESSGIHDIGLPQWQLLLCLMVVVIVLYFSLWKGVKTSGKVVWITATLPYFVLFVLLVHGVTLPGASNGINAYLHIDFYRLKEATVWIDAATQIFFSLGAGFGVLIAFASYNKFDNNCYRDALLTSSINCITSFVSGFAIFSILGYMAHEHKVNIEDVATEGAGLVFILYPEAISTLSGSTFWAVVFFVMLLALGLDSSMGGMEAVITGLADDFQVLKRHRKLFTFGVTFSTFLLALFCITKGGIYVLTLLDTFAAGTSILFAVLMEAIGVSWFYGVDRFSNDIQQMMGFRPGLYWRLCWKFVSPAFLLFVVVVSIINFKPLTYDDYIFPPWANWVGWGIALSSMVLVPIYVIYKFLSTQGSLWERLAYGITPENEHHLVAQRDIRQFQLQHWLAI
UniProt P31645, sequence (whole entry, looked up): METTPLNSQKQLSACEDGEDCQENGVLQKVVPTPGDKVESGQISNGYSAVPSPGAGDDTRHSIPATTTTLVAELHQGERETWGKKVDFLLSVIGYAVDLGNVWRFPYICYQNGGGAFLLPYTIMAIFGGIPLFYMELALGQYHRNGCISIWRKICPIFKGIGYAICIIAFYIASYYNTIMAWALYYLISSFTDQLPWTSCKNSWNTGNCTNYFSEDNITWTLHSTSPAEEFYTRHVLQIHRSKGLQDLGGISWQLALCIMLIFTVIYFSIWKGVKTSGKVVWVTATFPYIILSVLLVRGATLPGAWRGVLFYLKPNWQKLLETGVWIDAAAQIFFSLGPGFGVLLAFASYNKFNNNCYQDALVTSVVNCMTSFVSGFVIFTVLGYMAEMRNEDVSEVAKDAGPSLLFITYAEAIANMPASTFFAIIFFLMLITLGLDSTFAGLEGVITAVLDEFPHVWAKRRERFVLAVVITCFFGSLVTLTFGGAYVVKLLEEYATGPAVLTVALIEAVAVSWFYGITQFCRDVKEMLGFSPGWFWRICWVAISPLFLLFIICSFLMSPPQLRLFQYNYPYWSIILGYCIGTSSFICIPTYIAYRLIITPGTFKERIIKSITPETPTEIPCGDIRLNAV
UniProt P08908, sequence (whole entry, looked up): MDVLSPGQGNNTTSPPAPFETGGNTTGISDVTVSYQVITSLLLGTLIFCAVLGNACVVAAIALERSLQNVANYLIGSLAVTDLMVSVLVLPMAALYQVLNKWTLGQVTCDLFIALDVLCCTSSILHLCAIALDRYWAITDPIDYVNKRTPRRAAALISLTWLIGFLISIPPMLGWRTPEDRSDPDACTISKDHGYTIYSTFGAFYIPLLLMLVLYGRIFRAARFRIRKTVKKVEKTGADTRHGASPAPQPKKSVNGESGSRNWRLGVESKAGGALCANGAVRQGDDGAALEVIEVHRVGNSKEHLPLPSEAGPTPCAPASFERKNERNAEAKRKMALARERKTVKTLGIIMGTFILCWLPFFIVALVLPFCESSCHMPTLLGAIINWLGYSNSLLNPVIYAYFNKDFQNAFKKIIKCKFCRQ
UniProt P21918, sequence (whole entry, looked up): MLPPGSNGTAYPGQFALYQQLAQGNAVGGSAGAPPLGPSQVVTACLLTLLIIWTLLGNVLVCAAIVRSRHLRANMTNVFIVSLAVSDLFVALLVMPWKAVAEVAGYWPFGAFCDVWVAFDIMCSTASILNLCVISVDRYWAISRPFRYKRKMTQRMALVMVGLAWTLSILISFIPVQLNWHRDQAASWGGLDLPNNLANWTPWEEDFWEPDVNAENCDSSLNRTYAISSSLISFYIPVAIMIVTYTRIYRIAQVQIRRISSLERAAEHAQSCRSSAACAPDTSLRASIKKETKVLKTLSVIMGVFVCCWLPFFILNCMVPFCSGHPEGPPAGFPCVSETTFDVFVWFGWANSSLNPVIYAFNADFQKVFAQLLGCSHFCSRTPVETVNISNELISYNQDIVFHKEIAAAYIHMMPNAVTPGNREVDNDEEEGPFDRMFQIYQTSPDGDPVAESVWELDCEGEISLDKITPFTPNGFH
UniProt P20309, sequence (whole entry, looked up): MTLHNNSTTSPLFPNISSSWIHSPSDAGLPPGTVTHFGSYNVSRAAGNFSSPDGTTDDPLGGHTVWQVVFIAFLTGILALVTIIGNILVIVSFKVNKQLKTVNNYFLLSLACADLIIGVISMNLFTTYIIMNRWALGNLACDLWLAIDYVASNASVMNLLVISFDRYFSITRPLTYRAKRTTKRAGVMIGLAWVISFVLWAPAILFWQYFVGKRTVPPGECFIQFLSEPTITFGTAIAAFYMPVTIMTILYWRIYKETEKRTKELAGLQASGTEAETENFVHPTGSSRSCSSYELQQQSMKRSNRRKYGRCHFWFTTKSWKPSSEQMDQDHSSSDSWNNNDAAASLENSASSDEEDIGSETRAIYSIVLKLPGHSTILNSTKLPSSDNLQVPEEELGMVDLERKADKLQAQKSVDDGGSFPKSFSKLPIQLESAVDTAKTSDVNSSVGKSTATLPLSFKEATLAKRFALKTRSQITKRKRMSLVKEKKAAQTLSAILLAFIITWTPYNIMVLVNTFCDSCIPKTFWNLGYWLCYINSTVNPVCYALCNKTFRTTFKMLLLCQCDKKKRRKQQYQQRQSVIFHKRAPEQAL

Series 1
SMILES: CNC(=O)c1cc(C(=O)N[C@H]2[C@@H]3COC[C@@H]32)cc2c1O[C@@H](CF)[C@@H]2c1ccccc1
Effect on: binding
Method: radioligand binding
Concentration: 10 µM
target	inhibition [%]
OPRM1 (Homo sapiens, UniProt P35372)	4.77
OPRK1 (Homo sapiens, UniProt P41145)	41.1
DRD5 (Homo sapiens, UniProt P21918)	-7.16
SLC6A3 (Homo sapiens, UniProt Q01959)	-18.8
HTR1A (Homo sapiens, UniProt P08908)	14.9
SLC6A2 (Homo sapiens, UniProt P23975)	-37.3
SLC6A4 (Homo sapiens, UniProt P31645)	-14.2
CHRM3 (Homo sapiens, UniProt P20309)	12.6

Series 2
Target: Calcium/calmodulin-dependent protein kinase type II subunit alpha (CAMK2A, Homo sapiens, UniProt Q9UQM7)
UniProt Q9UQM7, sequence (whole entry, looked up): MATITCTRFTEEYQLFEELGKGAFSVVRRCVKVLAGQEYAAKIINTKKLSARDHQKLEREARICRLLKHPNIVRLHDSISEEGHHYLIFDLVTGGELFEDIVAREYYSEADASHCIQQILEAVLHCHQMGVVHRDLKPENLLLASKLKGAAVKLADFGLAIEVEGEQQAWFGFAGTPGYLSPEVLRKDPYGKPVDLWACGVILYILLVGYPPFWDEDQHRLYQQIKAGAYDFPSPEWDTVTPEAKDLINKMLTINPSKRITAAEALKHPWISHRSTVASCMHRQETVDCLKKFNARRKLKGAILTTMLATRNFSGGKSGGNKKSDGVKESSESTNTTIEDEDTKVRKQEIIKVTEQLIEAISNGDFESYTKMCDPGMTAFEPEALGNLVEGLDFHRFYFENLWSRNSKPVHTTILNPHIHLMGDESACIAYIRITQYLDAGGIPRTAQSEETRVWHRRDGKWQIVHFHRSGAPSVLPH
Effect on: enzyme activity
Mode: inhibitor
Concentration: 10 µM
Compound	inhibition
O=c1[nH]c2ccccc2o1	-3%
COc1cc2ccc(=O)oc2c2ccoc12	-12%
CCN1C[C@]2(COC)[C@H](O)C[C@H](OC)[C@]34C1[C@H]([C@H](OC)[C@H]23)[C@@]1(OC(C)=O)C[C@H](OC)[C@@]2(O)C[C@@H]4[C@@H]1[C@H]2OC(=O)c1ccc(OC)cc1	-5%
O=C1NCN(c2ccccc2)C12CCN(CCCOc1ccc(F)cc1)CC2	4%

Series 3
Target: Serine/threonine-protein kinase 33 (STK33, Homo sapiens, UniProt Q9BYT3)
UniProt Q9BYT3, sequence (whole entry, looked up): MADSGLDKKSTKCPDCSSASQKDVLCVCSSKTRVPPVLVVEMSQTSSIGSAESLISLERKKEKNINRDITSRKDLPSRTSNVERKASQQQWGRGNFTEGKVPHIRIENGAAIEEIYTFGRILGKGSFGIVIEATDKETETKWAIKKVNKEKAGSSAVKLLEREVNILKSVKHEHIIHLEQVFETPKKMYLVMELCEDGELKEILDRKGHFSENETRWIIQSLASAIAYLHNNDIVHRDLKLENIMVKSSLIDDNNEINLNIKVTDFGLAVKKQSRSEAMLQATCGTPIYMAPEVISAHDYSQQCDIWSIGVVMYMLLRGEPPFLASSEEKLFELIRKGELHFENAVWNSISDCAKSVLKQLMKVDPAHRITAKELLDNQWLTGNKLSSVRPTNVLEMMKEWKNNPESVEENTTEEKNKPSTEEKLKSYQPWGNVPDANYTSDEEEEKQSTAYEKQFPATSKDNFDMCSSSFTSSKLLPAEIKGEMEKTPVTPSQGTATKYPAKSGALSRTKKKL
Effect on: enzyme activity
Mode: inhibitor
Method: radiometric
Concentration: 0.5 µM
Structure (SMILES)	remaining activity [%]
CC(C)c1nn(-c2c(Cl)cccc2Cl)c2nc(Cc3ccc(OCCO)cc3)[nH]c(=O)c12	97.5
Cn1cnc2cc3c(Nc4cccc(Br)c4)ncnc3cc21	99.3
O=C(Nc1ccc(Cl)cc1)c1ccccc1NCc1ccncc1	86.4
CCOc1cc2ncnc(Nc3cccc(Br)c3)c2cc1OCC	93.9
N/C(=N\[N+](=O)[O-])N/N=C\c1ccc(-c2cccc([N+](=O)[O-])c2)o1	102
O=c1cc(N2CCOCC2)oc2c1ccc1ccccc12	97.5
Cn1cc(/C=C2\C(=O)Nc3ccc(S(N)(=O)=O)cc32)c2ccccc21	46.3
CC(C)[C@H](CO)Nc1nc(Nc2cccc(Cl)c2)c2ncn(C(C)C)c2n1	74.4
COc1cc2ncnc(Nc3ccc(OCc4ccccc4)cc3)c2cc1OC	109
CCN1/C(=C/C(C)=O)Sc2ccc(OC)cc21	57.4
COc1ccc(Cl)cc1NC(=O)Nc1cc(C)nc2ccccc12	103
Nc1[nH]nc2nnc(-c3c(-c4ccccc4)nn4ccccc34)cc12	100
O=C1NC(=O)/C(=C/c2ccc3nccnc3c2)S1	66.3
COc1ccc(-c2cnc3c(-c4ccsc4)cnn3c2)cc1	71.6
CN(C)CCCn1cc(C2=C(c3c[nH]c4ccccc34)C(=O)NC2=O)c2ccccc21	62.9
CC(=O)O/N=C1/C(c2c(O)[nH]c3cc(Br)ccc23)=Nc2ccccc21	70.3
COc1cc2ncnc(N3CCN(C(=O)Nc4ccc(Oc5ccccc5)cc4)CC3)c2cc1OC	94.7
CS(=O)(=O)CCNCc1ccc(-c2ccc3ncnc(Nc4ccc(OCc5cccc(F)c5)c(Cl)c4)c3c2)o1	94.7
CCC(=O)Nc1ccc2ncnc(Nc3cccc(Br)c3)c2c1	94.1
COc1cc2ncc(-c3ccccc3)nc2cc1OC	91.7
C[S+]([O-])c1ccc(-c2nc(-c3ccncc3)c(-c3ccc(F)cc3)[nH]2)cc1 (centres unmarked)	98.1

Series 4
Cell line: HEK-293T/ACE2
Concentration: concentration not given
Time: 16 (unit not given)
Reference: vehicle
SMILES	viability [%]
N[C@@H](CC(=O)N1CCn2c(nnc2C(F)(F)F)C1)Cc1cc(F)c(F)cc1F	102
Cc1cc(C)cc(OCC2CNC(=O)O2)c1 (centres unmarked)	101
Cc1cc(C(C)(C)C)c(O)c(C)c1CC1=NCCN1	98.9
N=C(N)NC(=O)c1nc(Cl)c(N)nc1N	103
CCCCCCOC(=O)NC(=N)c1ccc(NCc2nc3cc(C(=O)N(CCC(=O)OCC)c4ccccn4)ccc3n2C)cc1	98.7
N#C[C@@H]1C[C@@H]2C[C@@H]2N1C(=O)[C@@H](N)C12CC3CC(CC(O)(C3)C1)C2	103
CCN(CC)C(=S)SSC(=S)N(CC)CC	95.7

Mixed results
Concentration: 100 µM
SMILES	cell line	conditions	viability
C[C@]12CCC(=O)C(O)=C1CC[C@@H]1[C@@H]2CC[C@]2(C)C(=O)CC[C@@H]12	HaCaT	60 h	86.6%
CCC1(c2ccc(N)cc2)CCC(=O)NC1=O (centres unmarked)	HaCaT	60 h	127%
O=C1CC[C@@]2(O)[C@H]3Cc4ccc(O)c5c4[C@@]2(CCN3CC2CC2)[C@H]1O5	A-375	18 h	103%
C#C[C@]1(O)C=C[C@H]2[C@@H]3CCC4=CC(=O)CC[C@@H]4[C@H]3CC[C@@]21CC	A-375	18 h	62.7%

Some of these lines once more (series 3):
Structure (SMILES)	remaining activity [%]
Nc1[nH]nc2nnc(-c3c(-c4ccccc4)nn4ccccc34)cc12	100
O=C1NC(=O)/C(=C/c2ccc3nccnc3c2)S1	66.3
COc1ccc(-c2cnc3c(-c4ccsc4)cnn3c2)cc1	71.6
CN(C)CCCn1cc(C2=C(c3c[nH]c4ccccc34)C(=O)NC2=O)c2ccccc21	62.9
CC(=O)O/N=C1/C(c2c(O)[nH]c3cc(Br)ccc23)=Nc2ccccc21	70.3
COc1cc2ncnc(N3CCN(C(=O)Nc4ccc(Oc5ccccc5)cc4)CC3)c2cc1OC	94.7
CS(=O)(=O)CCNCc1ccc(-c2ccc3ncnc(Nc4ccc(OCc5cccc(F)c5)c(Cl)c4)c3c2)o1	94.7
